Assay results gathered from unrelated publications.
Each line is one published result; not all experiments were run side by side.

Cc1c(CN(C)C(=O)/C=C/c2cnc3c(c2)CC(N)C(=O)N3)oc2ccccc12 (stereo not shown)  MIC (Acinetobacter baumannii; broth microdilution; AR-0078): 16 µg/mL
C=CCO/N=C(\C(=O)N[C@@H]1C(=O)N(OS(=O)(=O)O)C1(C)C)c1nsc(N)n1  MIC (Enterobacter aerogenes; agar dilution; ATCC 13048, susceptible): 1 µg/mL
CO[C@H]1/C=C/O[C@@]2(C)Oc3c(C)c(O)c4c(c3C2=O)C2=NC3(CCN(CC(C)C)CC3)NC2=C(NC(=O)/C(C)=C\C=C\[C@H](C)[C@H](O)[C@@H](C)[C@@H](O)[C@@H](C)[C@H](OC(=O)c2cccnc2)[C@@H]1C)C4=O  MIC (Mycobacteroides abscessus subsp. abscessus; K21 clinical isolate; 90% growth inhibition): 0.033 µM
C[C@@H]1C(=O)O[C@@H](C)/C=C/C=C\[C@@H](C)[C@@H]2C=C[C@@H]3C[C@@]4(C)O[C@H]4[C@@H](C)[C@H]3[C@@H]2C(=O)C(Cl)(Cl)C1=O  MIC (Staphylococcus aureus; MRSA clinical isolate; OXA SXT resistant): 0.1 µg/mL
CC[C@H](C)[C@H](NC(=O)[C@H](CC(N)=O)NC(=O)[C@H](CCC(N)=O)NC(=O)[C@H](CC(C)C)NC(=O)[C@@H](NC(=O)[C@H](Cc1ccccc1)NC(=O)[C@H](Cc1ccc(O)cc1)NC(=O)[C@H](CO)NC(=O)[C@H](CS)NC(=O)[C@H](CC(C)C)NC(=O)[C@H](CCCCN)NC(=O)[C@H](CCCCN)NC(=O)[C@H](CCCNC(=N)N)NC(=O)[C@H](CCCNC(=N)N)NC(=O)[C@H](CS)NC(=O)[C@H](CCCNC(=N)N)NC(=O)[C@H](CCCCN)NC(=O)[C@H](CCCNC(=N)N)NC(=O)[C@H](CCCCN)NC(=O)[C@H](Cc1ccccc1)NC(=O)[C@@H](N)CCCNC(=N)N)[C@@H](C)CC)C(=O)N[C@@H](CC(N)=O)C(=O)N[C@@H](Cc1ccccc1)C(=O)N[C@@H](CCCNC(=N)N)C(=O)N[C@@H](CC(C)C)C(=O)N[C@@H](CCCNC(=N)N)C(=O)N[C@@H](CCCCN)C(=O)NCC(=O)N[C@@H](CCCCN)C(=O)O  MIC (Bordetella bronchiseptica; broth microdilution; ATCC 10580; 16 h, 37 °C, cation-adjusted Mueller-Hinton broth): 32 µg/mL
CC1(C)[C@H](NC(=O)/C(=N\OCc2c(Cl)cccc2Cl)c2nsc(N)n2)C(=O)N1OS(=O)(=O)O  MIC (Enterobacter aerogenes; agar dilution; ATCC 13048, susceptible): 4 µg/mL
CNC(C)C1CCC(N)C(OC2C(N)CC(N)C(OC3OCC(C)(O)C(NC)C3O)C2O)O1 (stereo not shown)  MIC (Listeria monocytogenes; 1.108, glucose peptone yeast broth; 18 to 20 h, 37 °C): 2 µM
CC[C@H](C)[C@H](NC(=O)[C@H](CCC(N)=O)NC(=O)[C@H](Cc1ccccc1)NC(=O)[C@H](CC(N)=O)NC(=O)[C@H](CCCCN)NC(=O)[C@H](CC(C)C)NC(=O)[C@H](CCCNC(=N)N)NC(=O)[C@H](CCCCN)NC(=O)[C@H](CCCCN)NC(=O)[C@@H](NC(=O)[C@H](CO)NC(=O)[C@H](CCCCN)NC(=O)CNC(=O)[C@H](CC(C)C)NC(=O)[C@H](CCCCN)NC(=O)[C@H](CCCCN)NC(=O)[C@H](CC(C)C)NC(=O)[C@H](CCCCN)NC(=O)[C@H](CCCCN)NC(=O)[C@H](CCCNC(=N)N)NC(=O)[C@H](CC(C)C)NC(=O)CNC(=O)[C@@H](N)CCCNC(=N)N)[C@@H](C)CC)C(=O)NCC(=O)N[C@@H](Cc1ccccc1)C(=O)N[C@@H](CO)C(=O)N[C@H](C(=O)N1CCC[C@H]1C(=O)N[C@@H](Cc1ccccc1)C(=O)N[C@@H](C)C(=O)NCC(=O)O)C(C)C  MIC (Bordetella bronchiseptica; broth microdilution; ATCC 10580): 1.12 µM
CC1C=CC=CC(C)C2C=CC3CC(C)(O)C(Cl)C(C)C3C2C(=O)C(Cl)(Cl)C(=O)C(C)C(=O)O1 (stereo not shown)  MIC (Staphylococcus aureus; MRSA clinical isolate; resistant, OXA, CIP, MXF, ERY, CLI, DAP, VAN): 0.025 µg/mL
CC1(C)[C@H](NC(=O)/C(=N\OCc2cc(=O)c(O)cn2O)c2csc(N)n2)C(=O)N1OS(=O)(=O)O  MIC (Enterobacter aerogenes; agar dilution; ATCC 13048 susceptible): 0.125 µg/mL
CCCC(C)Oc1cccc(NC(=O)c2cccnc2)c1 (stereo not shown)  MIC (Lodderomyces parapsilosis; microbial growth, broth dilution; ATCC22019): 8 µg/mL
C#CCO/N=C(\C(=O)N[C@@H]1C(=O)N(OS(=O)(=O)O)C1(C)C)c1nsc(N)n1  MIC (Enterobacter aerogenes; agar dilution; ATCC 13048, susceptible): 16 µg/mL
C=C[C@]1(C)C[C@@H](OC(=O)CSc2ccc(NC(=O)c3ccco3)cc2)[C@]2(C)[C@H](C)CC[C@]3(CCC(=O)[C@H]32)[C@@H](C)[C@@H]1O  MIC (Mycoplasma gallisepticum; chicken lung isolates; 10 mg/kg to chickens): 0.00195 µg/mL

A few entries again:
CC1C=CC=CC(C)C2C=CC3CC(C)(O)C(Cl)C(C)C3C2C(=O)C(Cl)(Cl)C(=O)C(C)C(=O)O1 (stereo not shown)  MIC (Staphylococcus aureus; MRSA clinical isolate; resistant, OXA, CIP, MXF, ERY, CLI, DAP, VAN): 0.025 µg/mL
